Results pooled from the literature.
A part holds a random share of what one study measured. Positions count from the first letter of the parent shown.

Study 1 — technique: protein binding microarray; form: double-stranded DNA, one strand shown; sample: in vitro; concentration: not given; reference: not given; reading: higher = stronger binding
Target: Histone acetyltransferase KAT6A, both winged helices, GST fusion (KAT6A, Homo sapiens, UniProt Q92794, residues 1-181)
Setting: 8-mer, flanks averaged, mean of 2 arrays, mostly near background
Construct (chain): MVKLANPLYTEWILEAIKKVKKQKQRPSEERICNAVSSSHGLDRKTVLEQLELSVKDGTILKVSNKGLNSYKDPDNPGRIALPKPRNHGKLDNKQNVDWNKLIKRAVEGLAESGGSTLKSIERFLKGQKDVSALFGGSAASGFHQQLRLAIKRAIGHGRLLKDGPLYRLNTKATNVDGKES
Strand	E-score
GACGTACC	-0.0415
ACCCCTAA	-0.217
GATCAACC	0.0407
CGTGAACA	0.18
TCGAGCGA	0.00415
CTCCTTAA	-0.0871
ACAGGTCT	-0.158
ACATACTG	-0.0932
CAGGGCGA	0.066
ACCGCCCA	0.0851
ATCGAGGA	-0.12
GAGTCCTA	-0.159
ATGAATGA	-0.0746
ACGTAGAA	-0.0598
ATAGTCAC	-0.091
CGCACAAA	0.104
AAGCCCTT	-0.181
ATGACTTC	-0.0403
CATGATAA	-0.079
AGTACACT	-0.213
GCCTCTCA	-0.202
CAACAGCA	-0.0646
CCGAAAGG	0.0947
ACCGAGGC	-0.0276
AAAGTACA	-0.0864

Study 2 — technique: protein-binding microarray; form: double-stranded DNA, one strand shown; sample: in vitro; concentration: 2540 nM top; setting: 60-bp whole probe; with: salmon DNA 0.4 mg/ml; reference: random background probes; reading: higher = stronger binding; shared flanks, not repeated: GCCTAGCAC … GTCTTGATTCGCTTGACGCTGCTG
Target: Interferon regulatory factor 3, full length, phosphomimetic (IRF3, Homo sapiens, UniProt Q14653, residues 1-427, S386D/S396D/S398D/S402D/T404D/S405D)
Sequence of UniProt Q14653 (whole entry, unmodified, looked up): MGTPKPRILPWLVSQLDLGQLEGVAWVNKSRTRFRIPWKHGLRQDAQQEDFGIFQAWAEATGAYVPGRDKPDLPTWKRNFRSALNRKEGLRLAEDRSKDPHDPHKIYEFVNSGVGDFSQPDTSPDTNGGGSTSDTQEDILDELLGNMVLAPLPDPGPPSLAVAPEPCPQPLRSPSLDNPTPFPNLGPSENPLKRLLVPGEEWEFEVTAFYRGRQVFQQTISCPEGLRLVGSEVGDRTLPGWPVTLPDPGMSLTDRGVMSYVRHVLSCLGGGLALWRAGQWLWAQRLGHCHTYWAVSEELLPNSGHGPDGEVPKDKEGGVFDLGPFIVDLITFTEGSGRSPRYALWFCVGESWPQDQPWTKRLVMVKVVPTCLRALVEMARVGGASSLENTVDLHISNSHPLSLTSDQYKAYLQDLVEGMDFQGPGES
Strand	fitted relative affinity [z-score]
GACGGACTGGGAATGGGGACGTGCTAG	-0.626
ATAGGTATCGACTATCGGTTAGTGCTA	0.797
GACGGACTGGACATTGGGGACGTGCTA	-0.744
TCATGTTCCCTCATCAGACTGTGCTAG	0.918
TTAGATTTCAGTATCGATTAGTGCTAG	2.84
TTAGGTTTCGACTTTCAGTTAGTGCTA	3.61
GCCGATCTCAGTCTCGAGACGTGCTAG	2.33
TTAGGTTTCGACTATCAGTTAGTGCTA	2.6
GACGGACTGGGGTTTGGGGACGTGCTA	-0.862
CTCTATACCCATGTAGAGAGGTGCTAG	0.458
GACGATCTCGGGTTTCGAGACGTGCTA	0.932
CAGATGGAATTAAGAAGATGGTGCTAG	0.438
GACGATCTCAGTTTCGAGAAGTGCTAG	2.26
GACGGACTGGTTTTCCTGACGTGCTAG	0.278
GACGGTTTCGGACTGGGTACGTGCTAG	4.35
AACGATTCCAGTTTCGAGACGTGCTAG	3.19
TCATTCCTGATCTCTGGTACTGTGCTA	1.27
TACGATCTCAGTCTCGAGACGTGCTAG	0.716
GACGGTATCGGTACCGGGACGTGCTAG	3.42
TGTCTTTTCACTTTCTTTAAGTGCTAG	2.94
GCCGGACTGGGTATCGGGACGTGCTAG	0.08
ACCCATCTCCAGTAGCCTAGCGTGCTA	1.91
GCCACTTTCCATTTCTGTTTGTGCTAG	7.29
GACGGTTCCGGTTTCGGCACGTGCTAG	5.59
GACGGTATCATACTGCTGACGTGCTAG	2.05

Study 3 — technique: RNA Bind-n-Seq; form: RNA; sample: in vitro; concentration: 365 nM; reference: no-protein control; reading: higher = stronger binding
Target: RNA binding protein fox-1 homolog 2, RRM domain, GST-SBP tag (RBFOX2, Homo sapiens, UniProt O43251-10, residues 100-194)
Setting: natural RNA segment, single round, ends assumed
Shared flanks, not repeated: GGGAGUUCUACAGUCCGACGAUC … UGGAAUUCUCGGGUGCCAA
Target sequence (chain): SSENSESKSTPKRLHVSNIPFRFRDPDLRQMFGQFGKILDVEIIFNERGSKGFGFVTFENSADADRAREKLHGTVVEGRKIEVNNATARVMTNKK
Strand	RBNS enrichment (R)
AUGCUAAUGUUGAUGACAGAAUUUAUUUGGUUGCCUUGUGUGUUAAUUGAAUGCAUACCUAAUUGUAAAAUUUUUUUAUUUACAACAUUGGAAAUUCAGAAGUUAAUGUU	1.46
UGAAUUUGUUUUCUGUGAAUUCUAACCUCUAAAGGCAUGCUUAGAGGUCAAGGACCUUCCUGUGUAGUUGGUGCAAAAGCAAUCUCCACAGGACAGCACUGCUUCCAUGC	25.7
GAAAAAUUCCAGUCCGAUUUCUUUGUGUGUCAGCUGACUUCCUUAGCUGAUUGUUCCCACUUGCACCUCUCCACCUUUGGCACUAGAACUCCUGAGACACCACUUCUCAU	0.458
GGAUCCAUCGCUGAUGGUGUUUCUUUAGCCCCAUCCCAAUUGGCCUAAAACAUUUGUCACCAGAACAGUGGGGAAAAGCCUUCCUUUCCAGCCAUGUCUGACAGUGAGCA	0.529
UUUAGCCAAGACUUGUCUUGUCUCAAAGCCAAGACUCAGCAGUACAUGGAUUCUGAGAAGUCCAGGGUCUGAAUUGUUGUCUCUGAUUACUGGAAGGACAGGUUAACUGA	0.294
AACAUACUGUUAAUAUUUAAUUAAAAGCAUUGUUUUUUCUAGAGCUGAGAAAUAGAAGCUAAAGAAUAAUUAGAGCUGAAAGGCUUCCUUAUAUCAAACCAUCUAACAUU	0.376
UUUGUAAAAUUUAAACAUCGUAUGCGCAUAAACAAAAAUGAACAAGAAUUAGGGGGAAAUAACAUUUUCCAAAUAAUUAUAAAAAAUUUGUCCUGUGUCUAUGUAUCUAU	0.438
GUCCUCUGUGCGCACAGUAGGCCUUUGCUUUACCAUUCAACAGUUCUGACUUAGGCAUGUGUAGAUGGGUCCUUAGAUUCGUCCCGAGGAAGAGACUGCAAAGACACAUG	0.376
ACAGUGACUUGAGCUAUAGAUAGUAAAAAUCAUACGAGAGUUGAACUGAGUCAGGUUUAGGAAGCAAGUUUGGUUGCAUCAAUUAAGCAGGCUCUUUUCAAUUGACUGAU	0.25
CCAGGGGAAUCUUUUCUCUAAAACAUUUAUGCCCUUGCUUUGGCUAGAAACACAUUAACUGGUUUACUCAUUGAGAAUCCAGCAUAUUUAAGAGGUGACCCUGUGUUUUU	0.363
AGGGCAUCCUGACUGAACUGUGUCUAAGGGUCGGUCGGUUUACCACUGGACGGGUGCUGCAUCGGCAAGGCCAAGUUGAACACCGGAUGGUGCCAACCAUCGGUUGUUUG	0.367
UCCUAGCAUUUCUAUAUUAUCUGUCCAUUCUGAGGAACCAGUGAAUGUCCUAUAAAUGCACCUCCUGUCAAAACCAUGCCUGAGAGGUCCCGGCUGGGAGUGACAGGGUG	2.26

Study 4 — target: ATF7, bZIP domain (human); technique: DHFR protein complementation; sample: yeast; reference: wild-type JUN-FOS pair; reading: higher = stronger binding
Setting: single substitutions, most at no-binding floor
Starting sequence: JUN, bZIP domain (human); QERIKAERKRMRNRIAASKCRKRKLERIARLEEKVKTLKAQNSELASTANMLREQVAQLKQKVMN; partner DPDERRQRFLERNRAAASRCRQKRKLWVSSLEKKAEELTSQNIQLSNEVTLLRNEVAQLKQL
Change	binding fitness
S43L	-0.842 natural log
S47Y	-1.01 natural log
R53C	-1.38 natural log
Q55R	-0.961 natural log
T48W	-1.32 natural log
A46I	-0.895 natural log
T37S	-0.876 natural log
L31R	-1.48 natural log
A46L	-0.841 natural log
K34S	-1.19 natural log
L45K	-1.53 natural log
E32V	-0.886 natural log
M51H	-1.05 natural log
A49R	-0.671 natural log
K39Q	-0.971 natural log
K34D	-1.35 natural log
L45G	-1.46 natural log
E32R	-0.85 natural log
S43Q	-0.677 natural log
I28P	-1.28 natural log
N42S	-1.41 natural log

Some of these lines once more (study 1):
Strand	E-score
TCGAGCGA	0.00415
CTCCTTAA	-0.0871
ACAGGTCT	-0.158
ACATACTG	-0.0932
CAGGGCGA	0.066
ACCGCCCA	0.0851
ATCGAGGA	-0.12
GAGTCCTA	-0.159
ATGAATGA	-0.0746
ACGTAGAA	-0.0598
